Measured values pooled from the literature.
Compare with care: the assays were run in different laboratories. Several values in a cell are separate wells, animals, samples, runs or records. ± gives the spread as reported.

Compound	system	conditions	endpoint	value
COc1c(Cl)cccc1Nc1c(-c2ccncc2C#C[C@@]2(C)CCCN2C(=O)/C=C/CN(C)C)[nH]c2c1C(=O)NCC2	NCI-H2073 parental xenograft (EGFR wild-type), BALB/c nude mice	25 mg/kg once daily, 21 days	tumour growth inhibition	48.9%
CCCCCC(=O)[O][Pt]([Cl])([Cl])[O]C(=O)CCCCC.N.N	A549/DDP xenograft, female nude mice	dose not given, together with: survivin siRNA 0.5 mg/kg	tumour volume doubling time	7 days
COc1ccc(O)cc1-c1c[nH]c2ncc(-c3cncc(C(=O)N(C)C)c3)cc12	NSG mice, K562 xenograft	ip, 0.0268 mmol/kg once daily, 16 days	tumour growth inhibition	87.5 ± 1.3%
CN1CCCNC(=O)c2cccc(c2)C(=O)NCCCN(C)CCCNc2cccc3c2C(=O)c2cccc(c2C3=O)NCCC1	KSN/Slc nude mice, SAS xenograft	dose not given, day 4, 96 h	tumour volume	156 mm3 and 165 mm3 and 222 mm3 and 228 mm3 and 86.5 mm3
CCCCCCCC(=O)[O][Pt]([Cl])([Cl])[O]C(=O)CCCCCCC.N.N	A549/DDP xenograft, female nude mice	dose not given, together with: survivin siRNA 0.5 mg/kg	tumour volume doubling time	10.2 days
COc1ccc(NC(=O)c2ccc3[nH]c(-c4ccc(N(C)C)cc4)nc3c2)cn1	CT26, BALB/c mice, subcutaneous syngeneic graft	dose not given, day 11	tumour volume	349 mm3 and 486 mm3 and 392 mm3 and 585 mm3 and 470 mm3
COc1cc(N2CCN(C(=O)C3CCCN3)CC2)ccc1Nc1ncc(Cl)c(Nc2ccccc2P(C)(C)=O)n1 (centres unmarked)	nude mice, NCI-H3122 xenograft	oral, 25 mg/kg every two days, day 15	tumour volume	292 mm3 and 811 mm3 and 278 mm3 and 86.8 mm3 and 250 mm3
COc1ccc(OCc2ccc([N+](=O)[O-])cc2)cc1-c1c[nH]c2ncc(-c3cncc(C(=O)N(C)C)c3)cc12	NSG mice, K562 xenograft	ip, 0.0268 mmol/kg once daily, 16 days	tumour growth inhibition	57 ± 3.8%

A few entries again:
Compound	system	conditions	endpoint	value
COc1ccc(NC(=O)c2ccc3[nH]c(-c4ccc(N(C)C)cc4)nc3c2)cn1	CT26, BALB/c mice, subcutaneous syngeneic graft	dose not given, day 11	tumour volume	349 mm3 and 486 mm3 and 392 mm3 and 585 mm3 and 470 mm3
